Results from different studies.
Numbered parts are unrelated; each lists some results of a single study.

Block 1
Target: Interferon regulatory factor 7, full length, phosphomimetic (IRF7, Homo sapiens, UniProt Q92985, residues 1-503, S471D/S472D/S475D/S476D/S477D/S483D/S484D/S487D)
Chain of UniProt Q92985 (whole entry, unmodified, looked up): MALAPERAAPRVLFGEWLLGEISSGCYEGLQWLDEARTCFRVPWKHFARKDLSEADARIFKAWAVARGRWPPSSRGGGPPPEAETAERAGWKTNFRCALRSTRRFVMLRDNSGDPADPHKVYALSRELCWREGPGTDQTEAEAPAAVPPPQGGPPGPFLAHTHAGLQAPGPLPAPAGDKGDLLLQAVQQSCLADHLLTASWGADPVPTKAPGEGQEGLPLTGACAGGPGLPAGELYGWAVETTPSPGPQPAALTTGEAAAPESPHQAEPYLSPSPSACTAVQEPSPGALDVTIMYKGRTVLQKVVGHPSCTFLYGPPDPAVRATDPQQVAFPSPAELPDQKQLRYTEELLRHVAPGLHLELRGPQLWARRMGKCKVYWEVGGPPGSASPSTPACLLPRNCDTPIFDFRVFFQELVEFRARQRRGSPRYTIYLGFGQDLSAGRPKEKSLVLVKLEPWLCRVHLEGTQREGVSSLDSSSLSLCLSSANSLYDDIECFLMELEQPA
Technique: protein-binding microarray
Molecule type: double-stranded DNA, one strand shown
Matrix: in vitro
Tested at: 2200 nM top
Setting: 60-bp whole probe
With: salmon DNA 0.4 mg/ml
Baseline: random background probes
Reading: higher = stronger binding
Shared flanks, not repeated: GCCTAGCAC … GTCTTGATTCGCTTGACGCTGCTG
Sequence | fitted relative affinity [z-score]
TTAGATATCAGACTGGATGAGTGCTAG | -0.345
TCATTTATTTATTTTTAACTGTGCTAG | 0.976
CAGATTTGGCATATCTATTTGTGCTAG | 0.522
GACGGACTTGGTTTCGGGACGTGCTAG | 2.72
TTAGGTATCCTTATCCTTAAGTGCTAG | 0.822
CTCAAAGTCTTTTATGGTATTGTGCTA | 0.00937
GAAGAACTGAGTATCGAGACGTGCTAG | -0.582
TTAGAACTGCGACTGGATTAGTGCTAG | -0.374
TTAGGTATCGGTTTCGCTTAGTGCTAG | 5.34
GACCATATCGGGTATCGAGACGTGCTA | -0.147
CCAGTGCTGCTTTGTCAAGAGTGCTAG | -0.246
TTAGATATCGGGATTCGATTAGTGCTA | 0.31
GACGGTATCGACACTTGGGACGTGCTA | -0.00493
GACGTACTGGGACTGGGGACGTGCTAG | -0.39
TTAGAACTAAGACTGGATTAGTGCTAG | -0.873
TTAGATTTCAGTTCGGATTAGTGCTAG | 1.48
TTACGTATCGACTTTCGGTTAGTGCTA | 7.14
GAGGATATCGGGTATCGAGACGTGCTA | -0.317
TTACATTTCGGGTATCGATTAGTGCTA | 3.47
GACGGTCTCGGACTGGGGTCGTGCTAG | -0.6

Block 2
Target: Histone acetyltransferase KAT6A, winged helix 1, GST fusion (KAT6A, Homo sapiens, UniProt Q92794, residues 1-85)
Technique: protein binding microarray
Molecule type: double-stranded DNA, one strand shown
Matrix: in vitro
Tested at: not given
Setting: 8-mer, flanks averaged, mean of 2 arrays, mostly near background
Baseline: not given
Reading: higher = stronger binding
Residues (chain): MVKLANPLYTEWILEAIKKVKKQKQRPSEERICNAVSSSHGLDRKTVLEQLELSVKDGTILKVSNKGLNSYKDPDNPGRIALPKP
Sequence | E-score
CGGTATAC | 0.236
CGTATTTC | -0.104
GAAACGTC | -5.5e-05
GCGCCATA | 0.139
CGTTTCAA | 0.00852
GCGCTGAC | 0.324
CATAGGCA | -0.0548
GTGCTGCA | -0.0211
CTCAAGAC | -0.105
TCCATCCA | -0.221
ACCACAGT | -0.177
CATGTGCG | 0.213
ACAGCCTA | -0.106
AACGTCCA | -0.139
AGGAGTCA | -0.278
TCGGTTAA | 0.062
AGAAGCTC | -0.139
CGGCTACG | 0.385
AATAGCAT | -0.131
ACTTCCCT | -0.139
AATTCGAC | -0.113
AACTCGGG | 0.125
CAGCGGAA | 0.218
AACCCTAC | -0.202
GTTACATA | -0.00325

Block 3
Target: Prothrombin, mature alpha-thrombin (F2, Homo sapiens, UniProt P00734)
Technique: aptamer microarray, sandwich
Molecule type: DNA with 2'F-ANA
Matrix: in vitro
Tested at: 200 nM
Setting: whole 15-mer aptamer, many near background
With: Cy3 exosite-II aptamer, 400 nM
Reading: higher = stronger binding
Sequence: GGTTGGTGTGGTTGG
Modification | mean fluorescence intensity
2'F-ANA at 1 2 3 6 8 10 12 14 | 55.8 a.u.
2'F-ANA at 2 3 4 5 6 7 9 10 11 | 73.3 a.u.
2'F-ANA at 1 3 4 6 10 12 | 81 a.u.
2'F-ANA at 3 5 9 10 12 13 15 | 75.8 a.u.
2'F-ANA at 1 4 5 10 13 14 | 45.9 a.u.
2'F-ANA at 2 3 4 6 11 12 13 14 15 | 214 a.u.
2'F-ANA at 3 4 5 8 13 | 71.2 a.u.
2'F-ANA at 4 8 10 13 15 | 101 a.u.
2'F-ANA at 1 2 3 4 6 7 8 10 14 15 | 52.2 a.u.
2'F-ANA at 3 5 6 7 8 9 10 11 13 15 | 53.7 a.u.
2'F-ANA at 1 2 3 4 6 8 10 | 62 a.u.
2'F-ANA at 1 2 8 11 14 15 | 54.5 a.u.
2'F-ANA at 4 6 7 8 9 11 12 14 15 | 91.4 a.u.
2'F-ANA at 4 5 8 9 14 | 69.2 a.u.
2'F-ANA at 1 6 7 8 9 10 11 13 15 | 60.7 a.u.
2'F-ANA at 3 7 8 9 11 13 15 | 967 a.u.
2'F-ANA at 3 4 10 13 | 283 a.u.
2'F-ANA at 6 7 8 9 10 11 13 15 | 145 a.u.
2'F-ANA at 2 4 5 6 8 9 10 11 12 13 14 15 | 47.1 a.u.
2'F-ANA at 3 6 8 11 14 15 | 540 a.u.
2'F-ANA at 1 5 6 7 9 10 12 13 | 53.7 a.u.

Block 4
Target: RNA binding protein fox-1 homolog 2, RRM domain, GST-SBP tag (RBFOX2, Homo sapiens, UniProt O43251-10, residues 100-194)
Technique: RNA Bind-n-Seq
Molecule type: RNA
Matrix: in vitro
Tested at: 365 nM
Setting: natural RNA segment, single round, ends assumed
Baseline: no-protein control
Reading: higher = stronger binding
Shared flanks, not repeated: GGGAGUUCUACAGUCCGACGAUC … UGGAAUUCUCGGGUGCCAA
Target sequence (chain): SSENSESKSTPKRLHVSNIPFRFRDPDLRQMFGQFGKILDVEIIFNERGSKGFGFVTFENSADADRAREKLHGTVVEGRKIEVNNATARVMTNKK
Sequence | RBNS enrichment (R)
ACACUAGGUCACCCAGGCAAAGCCAGUGGACAGAUGCCUUUCAUAUAACCUGGGUGGGCUUUUGGAAAAUCUUUGAGAAGUUGAUUUCAUAGGCUGUAGAACAGUAAAGU | 0.98
GGGGGAUUUAAAGGGAAGGAGUGGGCAAAACACAUAAAAUGAAUUUAUUAUAUCUAAGCUCUGUAGCAGGAUUCAUGUCGUUCUUUGACAGUUCUUUCUCUUUCCUGUAU | 0.62
GAGCCAGCAGUCCAGGCUCCUCCUCAGUUACAGUGCUGACAUAAUAAACAGUGACAGAUCAACAGUCUCCUUGAAAUCUGAGUUUUUCUCCACCUGGGGCUGGUGUGGAG | 0.606
GCCUCGCCACUGAGAUACUAACUAGACCUAGACUAGGAGCUUUAUCAGGUUCUAGGAGGUCCUUUAGGAAGACUCUCAAAGGCAAAUCCCUGAUCCCCCGCCCCACCCUU | 0.318
CGGGCUGGCAGGCGCUGACUGCCUCAGCCCAUGUGCCCUGCCGGCCAGGGCGUGGCCUCCCCAAGGCUGUGGUGCCCCUUCUGGCUCCCCCAGGUCAGGUCCGCGCCCUU | 0.237
GUUAACUGUUGACUCCUCAAGGGUUUUGAUCAAUAUCACCCAAACCUUUUCCACUUGACAUGCUAGAAUUUUGGUGUGUGUGUGUGUGUGUGUGUAUUUGUUCACGAGCA | 1.5
CAAAUAAUGUUAAUGUUAUUCAAUCAUUUUCUGAAUUGUUAACUCUUAUUCUUUGGUUUAAAUACUGAAACAUGAUUAAUUGCUAACUACAGCUUAGAAACCCAAUAUCA | 0.309
CUUAUUGUAGUUAGAAAUUGUAACUUUGAUAUCGAAUCUCUUGCCUUCAACAAGCACACUGACAGAGAAAAAAAAAUAUGCUACUGUCUGUUGGUUCCAAUAUUCUCCCA | 0.391
AACGCCCUAAGCACUUCCUGGAACUGAAGAGCUUUAAGGACAACUAUAACACACUGGAGAGCACUCUGUGAUGGGGCUGCACACGUGCAGCCGUGCAGCACUCGGGAUGU | 0.576
CUUAUUCAUCUGAGCCGUCUCCACAGUCCCAAUGCCUCUGCUUUUUGUUUUACUUUUGUAGCAUAAGGUUUUUGCUUUUGCUUUGCCUUAAGAGUUCCCUAGGGAGUUAC | 0.51
GAAUGAAAUCCUGGAACUCAGAGUUAAAUUAAGAACAAGGCAUCCCACAGAACCUAAUCUGAACAAUCCCCGAUGAUUCCCUCUGCUUUUUGAAUGCUUCCAAGACUUAU | 1.44
GGGUCCCCCCAGGGAGCUGCCCAUGGCUUUAUUUAUGAACCUGGUUUUCGGGAGUCAGGGGAGGAGAUGACUUUGCUUCUGUGCACAGCCCCGUCUUCCAGGAGCCACAA | 0.406

Block 5
Target: Sal-like protein 4, full length isoform B (SALL4, Homo sapiens, UniProt Q9UJQ4-2, residues 1-616)
Technique: universal PBM
Molecule type: double-stranded DNA, one strand shown
Matrix: in vitro
Tested at: not given
Setting: 8-mer, flanks averaged, mean of replicates
Reading: higher = stronger binding
Target sequence (chain): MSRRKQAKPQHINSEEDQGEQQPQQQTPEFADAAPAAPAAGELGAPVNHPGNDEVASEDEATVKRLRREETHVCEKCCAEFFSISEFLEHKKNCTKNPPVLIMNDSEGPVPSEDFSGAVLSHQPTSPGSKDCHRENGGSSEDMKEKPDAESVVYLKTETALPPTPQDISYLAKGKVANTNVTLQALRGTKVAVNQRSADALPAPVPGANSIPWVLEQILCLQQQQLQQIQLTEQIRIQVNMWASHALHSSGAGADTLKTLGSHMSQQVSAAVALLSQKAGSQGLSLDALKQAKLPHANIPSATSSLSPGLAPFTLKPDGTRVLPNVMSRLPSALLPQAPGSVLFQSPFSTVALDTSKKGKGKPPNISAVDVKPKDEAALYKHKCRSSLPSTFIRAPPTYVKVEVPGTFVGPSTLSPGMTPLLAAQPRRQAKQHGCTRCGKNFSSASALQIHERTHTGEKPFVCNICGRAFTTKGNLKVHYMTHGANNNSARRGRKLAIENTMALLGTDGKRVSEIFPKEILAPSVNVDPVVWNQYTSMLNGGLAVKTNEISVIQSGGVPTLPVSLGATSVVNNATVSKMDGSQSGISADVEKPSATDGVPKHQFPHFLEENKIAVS
Sequence | E-score
GAATCGCA | -0.148
AGCGGTTA | 0.0957
ATGTCGTC | -0.0948
ACATGACA | 0.188
ACGCCCAA | -0.0429
AAGTCGTA | 0.112
GTGCACTA | -0.0275
ACTTTCGC | 0.0214
AATAAACC | 0.235
GGAACGTA | -0.00536
CTTGTAAC | 0.176
ACTATTTC | 0.238
GAGTGATA | 0.206
CTTGAGGA | -0.0846
ACCAGTGG | -0.18
CTCGTAAA | -0.00196
CGGTCGTC | -0.256

A few entries again (block 5):
Sequence | E-score
AATAAACC | 0.235
CGGTCGTC | -0.256
ACGCCCAA | -0.0429
AGCGGTTA | 0.0957
GAGTGATA | 0.206
ACTTTCGC | 0.0214
ACCAGTGG | -0.18
CTCGTAAA | -0.00196
CTTGTAAC | 0.176
GTGCACTA | -0.0275
GGAACGTA | -0.00536
ACTATTTC | 0.238
